Measured values of several laboratories.
Protocols differ between the studies behind these lines.

| Compound | test | test system | conditions | measurement | result |
| --- | --- | --- | --- | --- | --- |
| CCC(c1nnnn1Cc1cccs1)N1CCN(c2nc3cc(N(C)C)cc(F)c3s2)CC1 (centres unmarked) | light scattering | DNase I buffer | 5% DMSO | critical aggregation concentration | 16.8 µM |
| COC(=O)[C@H](Cc1ccccc1)NC(=O)[C@H](Cc1ccccc1)N=Cc1ccc(C=N[C@@H](Cc2ccccc2)C(=O)N[C@@H](Cc2ccccc2)C(=O)OC)cc1 | surface tension tensiometry | – | – | critical aggregation concentration | 1.31 mg/mL |
| CC[C@H](C)[C@H](NC(=O)[C@H](CCN)NC(=O)[C@H](Cc1ccccc1)NC(=O)[C@H](Cc1ccccc1)NC(=O)CCCCCO)C(=O)N[C@@H](CCN)C(=O)N[C@H](Cc1ccccc1)C(=O)N[C@@H](CC(C)C)C(=O)N[C@@H](CCN)C(=O)N[C@@H](C(=O)N[C@@H](CC(C)C)C(=O)N[C@@H](CO)C(N)=O)C(C)C | light transmittance | PBS | pH 7.4 | critical micelle concentration | 959 µM |
| CCC(c1nnnn1Cc1cccs1)N1CCN(c2nc3cc(N)cc(F)c3s2)CC1 (centres unmarked) | light scattering | RNase reaction buffer | – | critical aggregation concentration | 45 µM |
| O=C(Cc1ccc2ccccc2c1)N[C@H](Cc1ccc(O)cc1)C(=O)N[C@H](Cc1ccccc1)C(=O)N[C@H](Cc1ccccc1)C(=O)N[C@H](Cc1ccc(OP(=O)(O)O)cc1)C(=O)O | substrate, rheology | hydrogel | 0.5 wt%, with: alkaline phosphatase 1 U/mL | critical strain | 1.5% |
| Oc1cc(O)c2c(c1)OC(c1ccc(O)c(O)c1)C(OC1(c3ccc(O)c(O)c3)Oc3cc(O)cc(O)c3C(O)C1O)C2 (centres unmarked) | RWG biosensor | HBSS HEPES buffer | pH 7.2 | critical aggregation concentration | 2.8 µM |
| Nc1nc2c(ncn2CC(=O)N[C@@H](Cc2ccccc2)C(=O)N[C@@H](Cc2ccccc2)C(=O)O)c(=O)[nH]1 | oscillatory rheology | hydrogel in water | 2.0 wt%, pH 5.0 or 7.4, with: alkaline phosphatase at pH 7.4 | critical strain | 0.8% |
| O=C(Cc1ccc2ccccc2c1)N[C@H](Cc1ccccc1)C(=O)N[C@H](Cc1ccccc1)C(=O)N[C@H](Cc1ccc(OP(=O)(O)O)cc1)C(=O)N[C@H](Cc1ccc(OP(=O)(O)O)cc1)C(=O)O | substrate, rheology | hydrogel | 0.5 wt%, with: alkaline phosphatase 1 U/mL | critical strain | 1% |
| CCC(c1nnnn1Cc1cccs1)N1CCN(c2nc3cc(OC)cc(F)c3s2)CC1 (centres unmarked) | light scattering | DNase I buffer | 5% DMSO | critical aggregation concentration | 90.7 µM |
| Nc1ccn(CC(=O)N[C@@H](Cc2ccccc2)C(=O)N[C@@H](Cc2ccccc2)C(=O)O)c(=O)n1 | oscillatory rheology | hydrogel in water | 2.0 wt%, pH 5.0 or 7.4, with: alkaline phosphatase at pH 7.4 | critical strain | 0.6% |
| COCCOCCOCCOCCOCCOCCOCCOCCOCCOCCOCCOCCOCCOCCOCCOCCOCCOCCOCCOCCOCCOCCNC(=O)CCC1(Cc2ccccc2)c2ccccc2-c2ccc(-c3sc(-c4c5c(c(-c6sc(-c7ccc8c(c7)C(CCC(=O)NCCOCCOCCOCCOCCOCCOCCOCCOCCOCCOCCOCCOCCOCCOCCOCCOCCOCCOCCOCCOCCOCCOC)(Cc7ccccc7)c7ccccc7-8)c7c6OCCO7)c6nsnc46)N=S=N5)c4c3OCCO4)cc21 (centres unmarked) | – | deionized water | – | critical aggregation concentration | 0.14 mg/mL |

For quick reference, copied from above:
| Compound | test | test system | conditions | measurement | result |
| --- | --- | --- | --- | --- | --- |
| CC[C@H](C)[C@H](NC(=O)[C@H](CCN)NC(=O)[C@H](Cc1ccccc1)NC(=O)[C@H](Cc1ccccc1)NC(=O)CCCCCO)C(=O)N[C@@H](CCN)C(=O)N[C@H](Cc1ccccc1)C(=O)N[C@@H](CC(C)C)C(=O)N[C@@H](CCN)C(=O)N[C@@H](C(=O)N[C@@H](CC(C)C)C(=O)N[C@@H](CO)C(N)=O)C(C)C | light transmittance | PBS | pH 7.4 | critical micelle concentration | 959 µM |
